# Experimental data gathered from unrelated publications.
# Compare with care: the assays were run in different laboratories. “And” joins repeats or separate records; there may be more than shown. ± gives the spread as reported.
# SCRIB PDZ3 domain: Protein scribble homolog, PDZ3 domain (SCRIB, Homo sapiens, UniProt Q14160)
# Sequence of UniProt Q14160 (whole entry, looked up): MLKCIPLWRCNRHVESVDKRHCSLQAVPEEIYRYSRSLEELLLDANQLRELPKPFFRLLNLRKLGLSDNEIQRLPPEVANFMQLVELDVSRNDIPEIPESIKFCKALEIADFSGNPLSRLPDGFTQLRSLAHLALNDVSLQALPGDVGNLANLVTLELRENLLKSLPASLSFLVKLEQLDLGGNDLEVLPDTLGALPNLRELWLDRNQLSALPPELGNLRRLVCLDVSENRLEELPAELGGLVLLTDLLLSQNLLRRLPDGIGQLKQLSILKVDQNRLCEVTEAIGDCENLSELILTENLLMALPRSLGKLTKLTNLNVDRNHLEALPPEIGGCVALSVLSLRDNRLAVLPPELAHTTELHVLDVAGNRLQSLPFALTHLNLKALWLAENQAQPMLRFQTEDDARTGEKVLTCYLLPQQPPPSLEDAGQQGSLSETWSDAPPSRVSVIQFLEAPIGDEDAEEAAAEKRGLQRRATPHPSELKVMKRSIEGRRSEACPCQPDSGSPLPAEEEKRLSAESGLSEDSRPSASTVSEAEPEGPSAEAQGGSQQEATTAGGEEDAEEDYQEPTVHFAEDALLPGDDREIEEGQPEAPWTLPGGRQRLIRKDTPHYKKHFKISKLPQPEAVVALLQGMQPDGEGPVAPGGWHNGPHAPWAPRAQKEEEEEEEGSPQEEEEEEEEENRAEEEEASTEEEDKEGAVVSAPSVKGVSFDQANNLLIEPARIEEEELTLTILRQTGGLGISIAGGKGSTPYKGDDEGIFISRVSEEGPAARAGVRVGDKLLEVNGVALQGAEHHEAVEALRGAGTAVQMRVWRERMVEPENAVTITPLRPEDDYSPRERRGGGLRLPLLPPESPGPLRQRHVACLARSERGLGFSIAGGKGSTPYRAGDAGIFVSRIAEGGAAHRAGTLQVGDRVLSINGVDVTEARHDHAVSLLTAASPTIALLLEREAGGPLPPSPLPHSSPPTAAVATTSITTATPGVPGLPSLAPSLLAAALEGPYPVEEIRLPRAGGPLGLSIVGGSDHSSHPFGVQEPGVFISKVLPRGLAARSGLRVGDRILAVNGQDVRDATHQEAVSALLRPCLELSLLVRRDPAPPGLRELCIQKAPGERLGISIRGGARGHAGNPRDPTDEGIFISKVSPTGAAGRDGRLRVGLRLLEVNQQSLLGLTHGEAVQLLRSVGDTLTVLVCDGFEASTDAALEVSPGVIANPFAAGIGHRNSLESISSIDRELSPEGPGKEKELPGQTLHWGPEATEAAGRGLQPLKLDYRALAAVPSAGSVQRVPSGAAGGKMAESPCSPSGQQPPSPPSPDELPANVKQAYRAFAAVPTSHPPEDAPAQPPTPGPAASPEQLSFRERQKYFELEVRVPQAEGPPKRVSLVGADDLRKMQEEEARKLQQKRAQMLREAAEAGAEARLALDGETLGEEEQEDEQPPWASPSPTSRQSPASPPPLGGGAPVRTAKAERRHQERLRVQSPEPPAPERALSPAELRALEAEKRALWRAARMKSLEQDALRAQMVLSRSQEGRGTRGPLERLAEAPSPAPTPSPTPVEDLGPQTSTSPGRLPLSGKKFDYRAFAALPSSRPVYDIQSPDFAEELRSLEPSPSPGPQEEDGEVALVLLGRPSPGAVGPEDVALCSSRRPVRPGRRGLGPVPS
# Sequence of UniProt O33336 (whole entry, looked up): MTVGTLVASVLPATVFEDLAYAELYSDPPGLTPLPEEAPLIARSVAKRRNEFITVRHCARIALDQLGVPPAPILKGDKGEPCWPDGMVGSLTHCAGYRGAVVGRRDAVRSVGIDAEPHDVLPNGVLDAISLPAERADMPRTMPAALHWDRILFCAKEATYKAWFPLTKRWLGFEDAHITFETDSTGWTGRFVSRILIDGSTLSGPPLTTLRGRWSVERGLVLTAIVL
SMILES,target or system,assay,test system,conditions,scale,quantity,result
[131I-].[Na+],,ATA response criteria,"human, papillary thyroid cancer, nodal metastases",3700 MBq,,excellent response,61.6%
O=C(O)/C=C/C(=O)O.Oc1cccc2[nH]cc(CCNCc3ccccc3)c12,,,C57BL/6J mice,"subcutaneous, 30 mg/kg, 30 min",,distance travelled,869 ± 137 cm
COc1cc2c3c(n(CCCNCCO)c(=O)c2cc1OC)-c1cc2c(cc1C3=O)OCO2,,,"GL261-Luc, mouse orthotopic glioblastoma","intravenous, 20 mg/kg",,mean survival time,22 days
COc1cc(Nc2ncc(F)c(Nc3ccc4c(n3)NC(=O)C(C)(C)O4)n2)cc(OC)c1OC,"PLAU (Homo sapiens, UniProt P00749)",,,Urokinase,,IC50,> 10 µM
CCCCC1(CCCC)CN(c2ccccc2)c2cc(SC)c(OCC(=O)N[C@@H](C(=O)NCC(=O)O)c3ccccc3)cc2S(=O)(=O)C1,,measured: HDL cholesterol,"human, serum","15 mg once daily, day 7",,serum HDL-C,44.5 mg/dL
CC[C@H](C)[C@@H]1NC(=O)[C@@H]2CCCN2C(=O)[C@H](CC(C)C)NC(=O)[C@H](CC(C)C)NC(=O)CNC(=O)[C@@H](NC(=O)[C@@H](NC(=O)[C@H](CC(=O)O)NC(=O)CNC(=O)[C@@H](NC(=O)[C@H](C)NC(=O)CNC(=O)[C@H](CCCCN)NC(=O)[C@H](CC(C)C)NC(=O)[C@H](CC(C)C)NC(=O)[C@H](CCCCN)NC(=O)CNC(=O)[C@@H](NC(=O)[C@@H](N)CC(C)C)C(C)C)C(C)C)C(C)C)CSSC[C@@H](C(=O)O)NC1=O,,"RNA-seq, measured: Il11","mouse, traumatic brain injury model, frontal cortex and hippocampus",dose not given,relative to: TBI alone,log2 fold change,-2.78
C=CCNc1c(O)cc2c(O)c1C[C@@H](C)C[C@H](OC)[C@H](O)[C@@H](C)/C=C(\C)[C@H](OC(N)=O)[C@@H](OC)/C=C\C=C(/C)C(=O)N2,,RECIST v1.0,human soft tissue sarcoma,"concentration not given, best response",,patients with stable disease,59%
CSCC[C@H](NC(=O)CN)C(=O)N[C@@H](CCCCN)C(=O)N[C@@H](CCCNC(=N)N)C(=O)N[C@@H](CC(C)C)C(=O)N[C@H](C(=O)N[C@@H](CO)C(=O)N[C@H](C(=O)N[C@@H](CCCNC(=N)N)C(=O)N[C@@H](CC(C)C)C(=O)O)[C@@H](C)O)[C@@H](C)O,SCRIB PDZ3 domain,"binding, fluorescence polarization",solution,Scribble PDZ3 domain,,Kd,25.2 µM
COc1ccc(-c2ccc3ncc4c(c3c2)n([C@@H]2CCN(C)CC2(F)F)c(=O)n4C)cn1,,,"mouse, sample A orthotopic PDX","7.5 mg/kg x 10, together with: 2.3 Gy radiation",,median survival,408 days
C=CC(=O)N[C@H]1C=C(C)c2c(-c3cnc4ccccc4c3)c3c(N)ncnc3n2C1,,,"NCI-H2073 EGFR SVD knock-in xenograft, BALB/c nude mice","50 mg/kg once daily, 21 days",,tumour growth inhibition,45%
C=CC(=O)Nc1cc(Nc2ncc(Cl)c(Nc3ccccc3C(=O)C(=O)N(C)C)n2)c(OC)cc1N1CCN(C)CC1,,RECIST v1.1 best response,human EGFR T790M NSCLC,"oral, 200 mg/day, per-protocol set",,patients with partial response,33.3%
CC[C@H](C)[C@H](NC(=O)[C@H](C)NC(=O)[C@H](CCCCN)NC(=O)[C@H](CC(C)C)NC(=O)[C@H](C)NC(=O)[C@@H](NC(=O)[C@H](Cc1c[nH]cn1)NC(=O)[C@H](CC(C)C)NC(=O)[C@@H](NC(=O)[C@@H](NC(=O)[C@H](CCCCN)NC(=O)[C@H](C)NC(=O)[C@H](C)NC(=O)[C@H](CO)NC(=O)[C@H](CCCCN)NC(=O)[C@H](Cc1ccccc1)NC(=O)[C@@H](NC(=O)[C@H](CCCCN)NC(=O)[C@H](CC(C)C)NC(=O)[C@H](Cc1ccccc1)NC(=O)[C@H](CO)NC(=O)[C@H](CCCCN)NC(=O)[C@H](Cc1c[nH]c2ccccc12)NC(=O)[C@H](CCCCN)NC(C)=O)[C@@H](C)O)[C@@H](C)O)C(C)C)[C@@H](C)O)C(=O)N[C@@H](CO)C(=O)N[C@@H](CO)C(N)=O,Enterococcus faecalis,,,40 strains,,MBC50,16 µg/mL
CC(C)C[C@@H]1NC(=O)[C@H](CC(C)C)NC(=O)[C@H](Cc2c[nH]c3ccccc23)NC(=O)[C@H](CO)NC(=O)[C@H](Cc2c[nH]c3ccccc23)NC(=O)[C@@H]2CCCN2C(=O)[C@H](CC(C)C)NC(=O)[C@H](Cc2c[nH]cn2)NC(=O)[C@@H]2CCCN2C(=O)[C@H](CC(N)=O)NC(=O)[C@H](C)NC(=O)[C@H](Cc2ccc(O)cc2)NC(=O)[C@H](CS)NC(=O)[C@H](CCCCNC(=O)CN2CCN(CC(=O)O)CCN(CC(=O)O)CCN(CC(=O)O)CC2)NC1=O [lutetium-177 labelled],,,"Balb/c mouse, female, 4T1 tumour, kidney","intravenous, 3.7 MBq, 96 h",,tissue uptake,0.16 %ID
CCCCCCC(C)(C)c1cc(O)c([C@H]2CC(=O)[C@H]3C[C@@H]2C3(C)C)c(OC(=O)/C=C/C(=O)O)c1,African green monkey cells,,,5 days,,CC50,7.67 µM
CN1CCN(S(=O)(=O)c2cc([N+](=O)[O-])ccc2N(CCOS(C)(=O)=O)CCOS(C)(=O)=O)CC1,,,"NSG mice, sample CE PDX","intraperitoneal, 25 mg/kg weekly x3",relative to: vehicle,EFS delay (T-C),> 58 days
N.N.[Cl][Pt][Cl],,,"SAS xenograft, KSN/Slc nude mice","dose not given, day 6, group mean",,tumour volume,195 mm3
C#C[C@]1(O)CC[C@H]2[C@@H]3CCC4=CCCC[C@@H]4[C@H]3CC[C@@]21C,African green monkey cells,,,5 days,,CC50,10.5 µM
Cc1nc(Nc2ccc(CC(=O)O)cc2)nc(Nc2ccc(F)c(C(F)(F)F)c2)c1C,,,"mice, chronic ethanol plus binge","intraperitoneal, 0.3 mg/kg daily, ethanol diet 4 weeks, dosed last two",relative to: vehicle,liver to body weight ratio,no effect
CC[C@H](C)[C@H](NC(=O)[C@H](CC(=O)O)NC(=O)[C@H](CC(N)=O)NC(=O)[C@H](CC(C)C)NC(=O)[C@H](C)NC(=O)[C@H](CC(N)=O)NC(=O)[C@@H](N)CC(=O)O)C(=O)N[C@H](C(=O)N[C@@H](CO)C(=O)N[C@@H](CC(C)C)C(=O)O)[C@@H](C)O,SCRIB PDZ3 domain,"binding, fluorescence polarization",solution,Scribble PDZ3 domain,,Kd,54.4 µM
Cc1cccc(C)c1NC(=O)C1CCCCN1 (centres unmarked),,,"Sprague-Dawley rat, male, sciatic nerve",30 mM,,sensory block duration,67.4 ± 17.4 min
C[C@H]1O[C@@H](O[C@H]2CC[C@@]3(C)[C@@H](CC[C@]4(C)[C@@H]3C=C[C@]35OC[C@@]6(CCC(C)(C)C[C@H]63)[C@@H](O)C[C@]54C)[C@]2(C)CO)[C@H](O)[C@@H](O[C@@H]2O[C@H](CO)[C@@H](O)[C@H](O)[C@H]2O)[C@H]1O,,,"mouse, no ethanol, hepatic SIRT1 knockdown, liver","dose not given, high dose",,hepatic total cholesterol,0.15 mmol/g protein and 0.0669 mmol/g protein and 0.145 mmol/g protein and 0.0795 mmol/g protein and 0.0712 mmol/g protein
CCNC(=N)NC(=O)Nc1ccc(Cl)c(C(F)(F)F)c1,"4'-phosphopantetheinyl transferase PptT (Mycobacterium tuberculosis, UniProt O33336)",inhibitor,,,,IC50,> 100 µM
CC1(C)C(=CC=C2CCCC(C=CC3=[N+](CCCCS(=O)(=O)[O-])c4ccc(S(=O)(=O)O)cc4C3(C)C)=C2Oc2ccc(S(=O)(=O)O)cc2)N(CCCCCC(=O)NCCCC[C@H](NC(=O)[C@H](CO)NC(=O)CNC(=O)CNC(=O)CNC(=O)[C@H](Cc2ccccc2)NC(=O)[C@H](CCCNC(=N)N)NC(=O)[C@@H]2CCCN2C(=O)[C@H](CC(N)=O)NC(=O)[C@@H]2CCCN2C(=O)[C@H](CO)NC(=O)[C@@H](N)CCCCN)C(N)=O)c2ccc(S(=O)(=O)O)cc21,,NIR fluorescence endoscopy,"CPC;Apc mice, colonic adenoma",1.5 h,,tumour to background ratio,2.22
c1ccc2c(c1)Nc1ccccc1S2,,,CT26 tumour-bearing mice,"intraperitoneal, 100 mg/kg equivalents daily, day 3",,tumour volume,411 mm³
C[C@]1(CO)Cc2ncn(-c3ccc(C#N)c(Cl)c3)c2C(=O)O1,,"aldosterone synthesis, inhibitor, measured: cortisol","healthy Japanese adults, urine","3 mg, 0-24 h at steady state, multiple rising dose",,urinary excretion,84 mmol
Cc1ccccc1NC(=O)Nc1ccc(CC(=O)N[C@@H](CCCCNC(=O)/C=C/c2cccnc2)C(=O)N[C@@H](CCCC(=O)O)C(=O)NC2(C(=O)NCCOCCOCCOCCOCC(=O)N[C@@H](CCCCNC(=S)Nc3ccc(CCCN(CCN4CCN(CP(=O)(O)O)CCN(CP(=O)(O)O)CC4)CC(=O)O)cc3)C(N)=O)CCCCC2)cc1 [gallium-68 labelled],,,"mouse, liver","intravenous, 2 h post-injection",,tissue uptake,6.2 ± 1.2 %ID/g
Cc1cn(-c2cc(NC(=O)c3ccc(C)c(Nc4nccc(-c5cccnc5)n4)c3)cc(C(F)(F)F)c2)cn1,,,human patients,"dose not given, 12 months from baseline, caregiver distress, within group",direction not given,change in mean NPI score,2
Cc1ccc2cc(N3CCC4(O)C(=O)c5cc(C)c(C)cc5N=C34)ccc2n1 (centres unmarked),,,rat,"IV, methamphetamine seeking",,minimally efficacious dose,2 mg/kg
CCCCCN1C[C@H](O)[C@@H](O)[C@H](O)[C@@H]1CO,,,Hexb-/- mouse,30 mg/kg/day,relative to: untreated,median survival increase,15%
CC[C@H](C)[C@@H]([C@@H](CC(=O)N1CCC[C@H]1[C@H](OC)[C@@H](C)C(=O)N[C@H](C)[C@@H](O)c1ccccc1)OC)N(C)C(=O)[C@@H](NC(=O)[C@H](C(C)C)N(C)C(=O)OCc1ccc(NC(=O)[C@H](CCCNC(N)=O)NC(=O)[C@@H](NC(=O)c2ccc(Cn3nnc4c3-c3ccccc3N(C(=O)CCC(=O)NCCOCCOCCOCCOCCC(=O)N[C@@H](CCC(=O)NCCCCCC(=O)N[C@@H](CCC(=O)N[C@@H](CCCOP(=O)(O)N[C@@H](CCC(=O)O)C(=O)O)C(=O)O)C(=O)O)C(=O)N[C@H](CCCCNC(=O)CCCc3ccc(I)cc3)C(=O)O)Cc3ccccc3-4)cc2)C(C)C)cc1)C(C)C,,,"NCr nude mouse, PC3-PiP tumour, plasma","intravenous, 0.8 mg/kg, single dose",,volume of distribution,0.106 L/kg
CC(=O)c1c(C)c2cnc(Nc3ccc(N4CCNCC4)cn3)nc2n(C2CCCC2)c1=O,,,"G-Smo mice, SHH medulloblastoma","10 mg/kg, daily P10-14 then alternate days",,median survival,16.5 days
COc1cc(C(=O)c2c[nH]c3cc(-c4cccc(OP(=O)([O-])[O-])c4)ccc23)cc(OC)c1OC.[Na+].[Na+],,bioluminescence imaging,mouse orthotopic RENCA-luc kidney tumour,"dose not given, 2.5 h post-treatment",,bioluminescence signal reduction,~90%

# Excerpt of the above:
SMILES,target or system,assay,test system,conditions,scale,quantity,result
CC(C)C[C@@H]1NC(=O)[C@H](CC(C)C)NC(=O)[C@H](Cc2c[nH]c3ccccc23)NC(=O)[C@H](CO)NC(=O)[C@H](Cc2c[nH]c3ccccc23)NC(=O)[C@@H]2CCCN2C(=O)[C@H](CC(C)C)NC(=O)[C@H](Cc2c[nH]cn2)NC(=O)[C@@H]2CCCN2C(=O)[C@H](CC(N)=O)NC(=O)[C@H](C)NC(=O)[C@H](Cc2ccc(O)cc2)NC(=O)[C@H](CS)NC(=O)[C@H](CCCCNC(=O)CN2CCN(CC(=O)O)CCN(CC(=O)O)CCN(CC(=O)O)CC2)NC1=O [lutetium-177 labelled],,,"Balb/c mouse, female, 4T1 tumour, kidney","intravenous, 3.7 MBq, 96 h",,tissue uptake,0.16 %ID
C[C@H]1O[C@@H](O[C@H]2CC[C@@]3(C)[C@@H](CC[C@]4(C)[C@@H]3C=C[C@]35OC[C@@]6(CCC(C)(C)C[C@H]63)[C@@H](O)C[C@]54C)[C@]2(C)CO)[C@H](O)[C@@H](O[C@@H]2O[C@H](CO)[C@@H](O)[C@H](O)[C@H]2O)[C@H]1O,,,"mouse, no ethanol, hepatic SIRT1 knockdown, liver","dose not given, high dose",,hepatic total cholesterol,0.15 mmol/g protein and 0.0669 mmol/g protein and 0.145 mmol/g protein and 0.0795 mmol/g protein and 0.0712 mmol/g protein
Cc1ccc2cc(N3CCC4(O)C(=O)c5cc(C)c(C)cc5N=C34)ccc2n1 (centres unmarked),,,rat,"IV, methamphetamine seeking",,minimally efficacious dose,2 mg/kg
